Assay results pooled from the literature.
Each line is one published result; not all experiments were run side by side.

| SMILES | organism | assay | system | setting | MIC |
| --- | --- | --- | --- | --- | --- |
| OC(Cn1cncn1)(Cn1cncn1)c1ccc(F)cc1F | Candidozyma auris | inhibitor | 277 | 24 h | 128 µg/mL |
| CO/N=C(\C(=O)N[C@@H]1C(=O)N2C(C(=O)O)=C(CSc3nc(=O)c(O)nn3C)CS[C@H]12)c1csc(N)n1 | Neisseria gonorrhoeae | broth microdilution | WHO N | 1.5 h | 1 µg/mL |
| CCCCCOc1ccc(-c2ccc(-c3ccc(C(=O)N[C@H]4C[C@@H](O)[C@@H](OCC[N+](C)(C)C)NC(=O)[C@@H]5[C@@H](O)[C@@H](C)CN5C(=O)[C@H]([C@@H](C)O)NC(=O)[C@H]([C@H](O)[C@@H](O)c5ccc(O)cc5)NC(=O)[C@@H]5C[C@@H](O)CN5C(=O)[C@H]([C@@H](C)O)NC4=O)cc3)cc2)cc1 | Candida glabrata | CLSI broth microdilution | 35315 | – | 0.25 µg/mL |
| O=C(NCc1ccccc1)C(c1cccs1)N(CCN1CCOCC1)C(=O)c1ccccc1 (stereo not drawn) | Micrococcus luteus | – | DSM 1790 | – | > 128 µM |
| C[C@H]1COc2c(N3CCN(C)CC3)c(F)cc3c(=O)c(C(=O)O)cn1c23 | Enterobacter aerogenes | agar dilution | ATCC 13048 susceptible | – | 0.06 µg/mL |
| CC1(C)S[C@@H]2[C@H](NC(=O)Cc3ccccc3)C(=O)N2[C@H]1C(=O)O | Neisseria gonorrhoeae | broth microdilution | WHO N | 1.5 h | 64 µg/mL |
| CC[C@H](C)[C@H](NC(=O)[C@H](CCCCN)NC(=O)[C@H](CCC(=O)O)NC(=O)CNC(=O)CNC(=O)[C@H](CCCCN)NC(=O)[C@H](CCCNC(=N)N)NC(=O)[C@H](CC(C)C)NC(=O)[C@H](CC(C)C)NC(=O)CN)C(=O)NCC(=O)N[C@@H](CCC(=O)O)C(=O)N[C@@H](CCCCN)C(=O)N[C@@H](CC(C)C)C(=O)N[C@@H](CCCCN)C(=O)N[C@@H](CCCCN)C(=O)N[C@H](C(=O)NCC(=O)N[C@@H](CCC(N)=O)C(=O)N[C@@H](CCCCN)C(=O)N[C@H](C(=O)N[C@@H](CCCCN)C(=O)N[C@@H](CC(N)=O)C(=O)N[C@@H](Cc1ccccc1)C(=O)N[C@@H](Cc1ccccc1)C(=O)N[C@@H](CCC(N)=O)C(=O)N[C@@H](CCCCN)C(=O)N[C@@H](CC(C)C)C(=O)N[C@H](C(=O)N1CCC[C@H]1C(=O)N[C@@H](CCC(N)=O)C(=O)N1CCC[C@H]1C(=O)N[C@@H](CCC(=O)O)C(=O)N[C@@H](CCC(N)=O)C(=O)O)C(C)C)[C@@H](C)CC)[C@@H](C)CC | Micrococcus luteus | broth microdilution | ATCC 4698 | 43 h, 37 °C, cation-adjusted Mueller-Hinton broth | 8 µg/mL |
| FC(F)(F)Oc1ccc(OCCn2c(CNCC34CC5CC(CC(C5)C3)C4)nc3ccccc32)cc1 | Enterobacter aerogenes | – | ATCC 35029 | – | > 128 µg/mL |
| CC1(C)SC2C(NC(=O)C(NC(=O)C3=C(O)CNC3=O)c3ccccc3)C(=O)N2C1C(=O)O (stereo not drawn) | Escherichia coli | broth microdilution | BW25113 wild type | 18 h | 50 µg/mL |
| CC[C@H]1OC(=O)[C@H](C)[C@@H](O[C@H]2C[C@@](C)(OC)[C@@H](O)[C@H](C)O2)[C@H](C)[C@@H](O[C@@H]2O[C@H](C)C[C@H](N(C)C)[C@H]2O)[C@](C)(O)C[C@@H](C)CN(C)[C@H](C)[C@@H](O)[C@]1(C)O | Neisseria gonorrhoeae | broth microdilution | WHO K | 1.5 h | 1 µg/mL |
| N=C(N)c1ccc(OCCCCCOc2ccc(C(=N)N)cc2)cc1 | Escherichia coli | – | mcr-2 polymyxin-resistant | 20 h, compound alone | 200 µg/mL |
| CC(C)(C)Oc1ccc(CC2NC(=O)C(C(=O)NC(C(=O)NC3C(=O)N4C3SC(C)(C)C4C(=O)O)c3ccccc3)=C2O)cc1 (stereo not drawn) | Escherichia coli | broth microdilution | ATCC 25922 wild type | added: clavulanic acid 6 µg/mL | 25 µg/mL |

Some of these lines once more:
| SMILES | organism | assay | system | setting | MIC |
| --- | --- | --- | --- | --- | --- |
| CO/N=C(\C(=O)N[C@@H]1C(=O)N2C(C(=O)O)=C(CSc3nc(=O)c(O)nn3C)CS[C@H]12)c1csc(N)n1 | Neisseria gonorrhoeae | broth microdilution | WHO N | 1.5 h | 1 µg/mL |
| OC(Cn1cncn1)(Cn1cncn1)c1ccc(F)cc1F | Candidozyma auris | inhibitor | 277 | 24 h | 128 µg/mL |
